Experimental data from different studies.
Each numbered part is a random draw from the data of one study; scales do not carry over between parts. Changes are numbered by the printed parent chain.

Series 1 — method: protein binding microarray; form: double-stranded DNA, one strand shown; sample: in vitro; concentration: not given; relative to: not given; direction: higher = stronger binding; measurement: E-score
Target: Histone acetyltransferase KAT6A, winged helix 2, GST fusion (KAT6A, Homo sapiens, UniProt Q92794, residues 85-181)
Notes: 8-mer, flanks averaged, mean of 2 arrays, mostly near background
Construct (chain): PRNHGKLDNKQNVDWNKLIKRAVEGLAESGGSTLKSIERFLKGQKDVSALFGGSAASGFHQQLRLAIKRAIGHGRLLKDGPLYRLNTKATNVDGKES
GTCTGCAC: -0.144
AGACTCCG: -0.0726
AGACAGCC: -0.199
TAGCTAGA: -0.0347
GCGGCGGA: 0.253
GTAGAAAA: 0.114
CAGCATCC: -0.0115
CGTTTGTA: 0.0213
CACCTAGG: -0.122
AGCGGCTA: 0.055
CCTCACTA: 0.00543
CTCATAGA: -0.0418
CGCTACTC: 0.0949
CCACGTAG: -0.274
CTAATAAG: 0.0488
CAGCCTAG: 0.0799

Series 2 — target: MAFK, bZIP domain (human); method: DHFR protein complementation; sample: yeast; relative to: wild-type JUN-FOS pair; direction: higher = stronger binding; measurement: binding fitness
Notes: single substitutions, most at no-binding floor
Starting sequence: JUN, bZIP domain (human); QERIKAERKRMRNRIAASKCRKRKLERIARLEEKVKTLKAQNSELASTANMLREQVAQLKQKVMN; partner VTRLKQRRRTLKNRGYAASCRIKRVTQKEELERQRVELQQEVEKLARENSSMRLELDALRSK
E33R: -1.46 natural log
A40V: -1.36 natural log
S43P: -1.52 natural log
L45F: -1.55 natural log
S43G: -1.42 natural log
E32F: -1.43 natural log
E33Q: -1.51 natural log
V56G: -1.44 natural log
M51C: -1.5 natural log
L52Y: -1.47 natural log
A49H: -1.37 natural log
A46K: -1.38 natural log
T37M: -1.45 natural log
E33G: -1.44 natural log
N42K: -1.15 natural log
V35M: -1.46 natural log
S43Y: -1.39 natural log
V35S: -1.47 natural log

Series 3 — method: RNA Bind-n-Seq; form: RNA; sample: in vitro; concentration: not given; relative to: input RNA pool; direction: higher = stronger binding; measurement: bound/input enrichment
Target: RING finger protein unkempt homolog, zinc fingers 1-6, GST-SBP tag (UNK, Homo sapiens, UniProt Q9C0B0, residues 30-357)
Notes: RNA with constant flanks, human-mouse chimeric sites, ends assumed
Constant ends, left off below: GGGAGUUCUACAGUCCGACGAUC … CAACAGAGGAUUGAGCAUCA
Residues (chain): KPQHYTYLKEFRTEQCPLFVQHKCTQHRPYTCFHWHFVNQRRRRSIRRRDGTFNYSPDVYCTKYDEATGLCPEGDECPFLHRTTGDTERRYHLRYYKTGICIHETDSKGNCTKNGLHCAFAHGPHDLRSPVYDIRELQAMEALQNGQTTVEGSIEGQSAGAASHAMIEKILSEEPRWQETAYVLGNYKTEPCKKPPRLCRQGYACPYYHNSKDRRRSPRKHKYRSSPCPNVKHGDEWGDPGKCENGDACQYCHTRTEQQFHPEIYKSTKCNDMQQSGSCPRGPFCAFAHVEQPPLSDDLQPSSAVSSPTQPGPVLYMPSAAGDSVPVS
AGAAAGCAAAACUUGGAACGAUUUAAGAAAGGAGAUGUAAGAUUCUUGAUUUGCACAGAUGUAGCUGCUAGAGGAAUUGAUAUCCAUGGCGUUCCUUAUGUGAUCAACGUCACCCUGCCU: 0.214 ratio
GGACAUCUGUCAAAUUGUUAUGUUCCUGUGAAACAAGUGAACACUCUGAUACACUUCAUCUGCUUGUACAUCUGUAUUUGUAUAAUAUGUAAAUAUGUUAAUCCAAGCAAUGUGUCACUU: 0.171 ratio
AGAAUCUUGGGACUGUUUUGCUUGAUUGGUCAUUGAUAGCUUAACAAACAUGGAGAUAAGAUUAGAAAUCUUGACAUCAACAGGUAUUAAGCAGAAAAAACCAUGGCCCAGAGUAUCCUG: 0.107 ratio
GUGCCCUUCUCGCUGCUGCGGAGCCCGAGCUGGGAACCAUUCCGGGACGACUGGUACCCGCAUAGCCGCCUCUUCGAUCAAGCUUUCGGGGUGCCCCGGUUGCCCGAUGAGUGGUCGCAG: 0.0938 ratio
AGAUUCCCCCUCCUGAGACCUCCUCCGAAGUUGGAGUCUCUUACAGAUGCCUCAUCCCCUGUUAGUAUUUUAGUUUGGACCACCCAGCCUUGGACGAUUCCCGCCAACCAGGCAAUUUGC: 2.14 ratio
UGUGAACUGUCUCUUGAUUGGGGUCUACAAGAUGACUUUUCCUGGCACAUAUUCCAAAGCAAAGACUUUGUUGCCUGCUGCUUAUUGUCUAAUUUACAGGGAUAUUUAAUUUUGUCAGGU: 0.365 ratio
GUACUGCAGCAGCAGGGAAAACUGCAGGAAGCUCUGAUGCACUAUAAGGAGGCUAUUCGAAUCAGUCCUACAUUUGCUGAUGCCUACUCUAAUAUGGGAAACACUCUAAAGGAGAUGCAG: 0.251 ratio
GUAGCUGGGACUACAGAAGAAUGCUGAAUUUCAGUCACUUGCUGAUGACUUCUGAUGUCCCAGCAAAUAAUGCCACAGUUGACUGCUGAGAAGAUACUUCUGAGGACCCACGUCUAAGGU: 0.119 ratio
CUGUGUGUGCUGAAUAAUGAUUUGUGAAAGAAGUUUUCCAAGUUGUAAACCCAUGCUGUUAUUAUAGUUGCUGCAAAAUGUUCUUCCUGAUAUUGAUUUUAUUUGUUAACUGAAGGUCUC: 0.684 ratio
AAAGAGAAACUAAAGCAAACUGAUUGAGAAGAGGAUUGCAAAGAGAAUUUCAUAGAGAAACUAGGAUUUAUUAGCAAACAUGAGUUAUAUUCCAGAGCGUCUCAGAAACCCCAGCCAAAC: 7.51 ratio
CCCCAAUACCAUUUGCAGGUCUGGAACUGCACUCUCUUUUUUAAAAAAUAUGCAUAUAUUUUAGGGCUGUAGAUUUAUUUUCCUGGUUUUGUUUUUCUUGCUUAUUCUUUGAGCACAGAA: 1.43 ratio

Series 4 — method: protein-binding microarray; form: double-stranded DNA, one strand shown; sample: in vitro; concentration: not given; direction: higher = stronger binding; measurement: E-score
Target: Max dimerization protein 1, bHLH-zipper, MAX partner unstated (MXD1, Homo sapiens, UniProt Q05195, residues 56-136)
Notes: k-mer, scored over probes, only values ≥0.25
Target sequence (chain): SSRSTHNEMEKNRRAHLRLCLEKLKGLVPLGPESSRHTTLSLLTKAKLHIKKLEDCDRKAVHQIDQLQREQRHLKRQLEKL
ATATGGCA: 0.275
CCCCATGA: 0.36
CAAGCATG: 0.386
AAGGCACG: 0.259
GAGCATGA: 0.297
CACATTGC: 0.339
CACGTTCC: 0.38
CATGCGGG: 0.384
GTGTCAAA: 0.269
GGCATGGA: 0.372
CCGCATGA: 0.321
CATGCGCG: 0.407
GGGCGGGA: 0.277
GCGTGGGA: 0.394
CACGCCTG: 0.369
ACAGCATG: 0.416
ACATGGCT: 0.277
AGGCGTGC: 0.324
AACATGGG: 0.316
AGCATATG: 0.293

Series 5 — method: aptamer microarray, sandwich; form: DNA with 2'F-ANA; sample: in vitro; concentration: 200 nM; added: Cy3 exosite-II aptamer, 400 nM; direction: higher = stronger binding; measurement: mean fluorescence intensity; strand: GGTTGGTGTGGTTGG
Target: Prothrombin, mature alpha-thrombin (F2, Homo sapiens, UniProt P00734)
Notes: whole 15-mer aptamer, many near background
2'F-ANA at 2 3 7 9 10 12 13: 420 a.u.
2'F-ANA at 2 4 6 8 9 11 12 13: 279 a.u.
2'F-ANA at 3 8 9 11 15: 1020 a.u.
2'F-ANA at 1 3 8 10 11 12 14: 119 a.u.
2'F-ANA at 2 4 9 14: 102 a.u.
2'F-ANA at 2 3 4 10 12 13 14: 200 a.u.
2'F-ANA at 5 7 9 11: 79.8 a.u.
2'F-ANA at 1 2 4 7 9 12 13: 170 a.u.
2'F-ANA at 1 4 5 6 11 13 14: 43.4 a.u.
2'F-ANA at 3 4 5 6 7 8 10 13 14 15: 47.7 a.u.
2'F-ANA at 5 6 9 10 11 12 13 14: 42.8 a.u.
2'F-ANA at 3 4 6 9 10 13 15: 200 a.u.
2'F-ANA at 1 2 4 5 6 8 10 12 13 14 15: 53.5 a.u.
2'F-ANA at 1 5 7 8 9 10 11 13: 43.7 a.u.
2'F-ANA at 1 4 5 7 10 13 15: 45.5 a.u.
2'F-ANA at 2 4 5 8 9 10: 45.5 a.u.
2'F-ANA at 1 7 8 11: 221 a.u.
2'F-ANA at 1 4 5 6 8 10 14 15: 50.2 a.u.
2'F-ANA at 3 4 8 10 11 13 15: 204 a.u.
2'F-ANA at 1 2 3 4 13: 134 a.u.
2'F-ANA at 1 9 11 12 14: 64 a.u.
2'F-ANA at 1 2 3 4 5 7 10 12 13: 47.4 a.u.
2'F-ANA at 1 3 7 10 11 12 13 15: 103 a.u.
2'F-ANA at 2 4 5 6 7 8 9 10 13: 48.4 a.u.
2'F-ANA at 1 6 8 15: 246 a.u.

Series 6 — method: RNA Bind-n-Seq; form: RNA; sample: in vitro; concentration: 365 nM; relative to: no-protein control; direction: higher = stronger binding; measurement: RBNS enrichment (R)
Target: RNA binding protein fox-1 homolog 2, RRM domain, GST-SBP tag (RBFOX2, Homo sapiens, UniProt O43251-10, residues 100-194)
Notes: natural RNA segment, single round, ends assumed
Constant ends, left off below: GGGAGUUCUACAGUCCGACGAUC … UGGAAUUCUCGGGUGCCAA
Construct (chain): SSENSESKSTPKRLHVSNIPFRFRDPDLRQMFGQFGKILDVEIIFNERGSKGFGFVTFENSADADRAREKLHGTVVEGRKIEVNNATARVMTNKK
UUUGUAAUGAAAUACUUCCUCUUUUCCAGGGCUUUGUAUGCACUUGUAUAAUUACAUUGAUGGCAAUGUAGAGUUUGAAUUUCAGUCUGUAAAUACUUUUUUGGAAAAUA: 1.4
UAACUAUAAAUCUGGCUAUUUCUUCAUCCAGUAACCUAAAUAUGAUAUAUACUUUAUAUUGGGUAUGAGAGAUCUGUGUUUGGGUUUUAUAGAUUUUAGCUUUUGACACG: 0.343
AAUACCUUAAAAAUAAUAGAUUGAUGAUUUUCUUUAUUUCCUAGAGAAUUUAUUUUAUAAAUACUUUGUUUACAUUUUAGAUUGUACUUGUCUUUAUUUAAAAUGAUGAA: 0.993
AUAGCCGUGUGUAGUGUCGCCAGAGAAGGUGGAGUUUAAGAAUGGUCUCAGUGUUAUUAAUGAGAAAAAGUUCUGUCAUUCAGGAAAAAAAAGCAAAAAACGUGAGGUUG: 4.3
UUUGAUUCACUUGCUUUGUUUUCUGUUUUUUUUAAUAGCUAUUAUAAAGAGGUACAAUAAGCAGCUAUUCACAGACACCUGGGUGGUUCCUAUACCUGCCCAGGACAUCU: 0.35
AAGCCCAGAACUUCUCUUUUGACAAUAAAGUACUGAGCAGUGGUAUCAUGAGGGCCACCUCCACAUUGUCCCCUGCAGAAUAAAUGCGGAUGACAGAAAGCUUAUGCUGU: 0.294
AUAAUAGGUAUAUUAACUGAAUUUCAUUAGUUUUUUAAAAUAAUAUUGUUUGUGUAUAUAUACAUAUAAAAUAAAAACAUUUACAACAAAUAAAAUACUUGAAAUUCUUG: 0.86
GAGCUAGGCUAUGAAGGGAAGAUGUGGCCGUACGUGGGAAUAACCAGUGUCCCACGCUCAUUUUCCCUCCAUCCUGCGUUCCGCCUCCCUUGGUACUCAGCCUUUUGGGG: 0.272
UUUUCUAUAUUGAGGUGGCCACCAUACUAAUAUUCUAAAUUUUCAAUAUUUGAACUUUUAACUCUUGACAUUGAAAAAAAAGGAUUUGGAGAAAUUACCAAGAUUUUAAC: 0.543
CUUCAGUUUGGGAGCUGGGUCUGUGGCUUUGAUCAGAAGGUACUUUCAAAAGAGGGCUUUCCAGGGCUCAGCUCCCAACCAGCUGUUAGGACCCCACCCUUUUGCCUUUA: 0.306
AAAGAGUAGGACAGAAGAGCGGCGCACACCUGCAGAUGUUCUGCAAGCCUUGCGGUCCAGAUGAGCAUGCCGGAAGGUUUCCUCAUGUAGCGUUCCCACUGGAGCUGUGU: 0.346
UCAAUGCUGUACAUCCAUCCAGUUAGUGUAACUGAAGGGAAAUGUAACUUUGUGCUGAGUUAGACAUCUGUAUUGUCAGUGAUUCUUGUAGAAUAUGUGCUCAGAUCUGA: 0.334

A few entries again (series 1):
AGACTCCG: -0.0726
AGACAGCC: -0.199
TAGCTAGA: -0.0347
GCGGCGGA: 0.253
GTAGAAAA: 0.114
CAGCATCC: -0.0115
CGTTTGTA: 0.0213
CACCTAGG: -0.122
AGCGGCTA: 0.055
CCTCACTA: 0.00543
CTCATAGA: -0.0418
CGCTACTC: 0.0949
CCACGTAG: -0.274
CTAATAAG: 0.0488
